Measurements gathered from unrelated publications.
Several values in a cell are separate wells, animals, samples, runs or records. ± marks the error that the study gave.
BCHE: Cholinesterase (BCHE, Equus caballus, UniProt P81908)
Chain of UniProt P81908 (whole entry, looked up): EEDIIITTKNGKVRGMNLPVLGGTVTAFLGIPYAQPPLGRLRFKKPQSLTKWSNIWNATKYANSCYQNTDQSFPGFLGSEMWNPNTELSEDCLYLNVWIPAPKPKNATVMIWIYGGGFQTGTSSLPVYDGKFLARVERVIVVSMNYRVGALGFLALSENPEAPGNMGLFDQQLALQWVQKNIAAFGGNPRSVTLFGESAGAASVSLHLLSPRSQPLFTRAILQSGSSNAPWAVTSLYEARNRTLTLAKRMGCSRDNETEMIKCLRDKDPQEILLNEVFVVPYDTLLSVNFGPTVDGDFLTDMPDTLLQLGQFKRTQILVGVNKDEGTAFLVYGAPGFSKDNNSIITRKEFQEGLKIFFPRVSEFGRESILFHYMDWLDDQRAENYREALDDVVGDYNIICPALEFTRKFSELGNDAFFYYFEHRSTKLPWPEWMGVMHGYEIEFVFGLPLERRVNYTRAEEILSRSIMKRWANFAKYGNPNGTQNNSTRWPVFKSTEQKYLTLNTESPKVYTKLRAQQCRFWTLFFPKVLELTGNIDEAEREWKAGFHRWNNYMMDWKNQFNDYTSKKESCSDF
Chain of UniProt O96017 (whole entry, unmodified, looked up): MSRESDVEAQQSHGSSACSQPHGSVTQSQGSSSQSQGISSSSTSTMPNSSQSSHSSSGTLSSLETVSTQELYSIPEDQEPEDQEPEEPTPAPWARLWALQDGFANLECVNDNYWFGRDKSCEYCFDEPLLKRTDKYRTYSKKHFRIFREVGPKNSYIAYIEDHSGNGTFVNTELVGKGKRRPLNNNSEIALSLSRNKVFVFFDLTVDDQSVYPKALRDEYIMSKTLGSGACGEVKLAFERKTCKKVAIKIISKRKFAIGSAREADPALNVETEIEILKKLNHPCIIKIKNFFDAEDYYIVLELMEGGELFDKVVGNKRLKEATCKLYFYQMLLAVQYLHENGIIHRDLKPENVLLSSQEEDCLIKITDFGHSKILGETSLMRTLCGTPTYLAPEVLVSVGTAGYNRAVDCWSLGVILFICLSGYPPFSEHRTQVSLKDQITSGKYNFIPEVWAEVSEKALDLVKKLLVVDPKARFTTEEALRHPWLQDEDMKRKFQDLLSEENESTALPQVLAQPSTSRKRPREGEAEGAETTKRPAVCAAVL
Chain of UniProt Q9HCP0 (whole entry, looked up): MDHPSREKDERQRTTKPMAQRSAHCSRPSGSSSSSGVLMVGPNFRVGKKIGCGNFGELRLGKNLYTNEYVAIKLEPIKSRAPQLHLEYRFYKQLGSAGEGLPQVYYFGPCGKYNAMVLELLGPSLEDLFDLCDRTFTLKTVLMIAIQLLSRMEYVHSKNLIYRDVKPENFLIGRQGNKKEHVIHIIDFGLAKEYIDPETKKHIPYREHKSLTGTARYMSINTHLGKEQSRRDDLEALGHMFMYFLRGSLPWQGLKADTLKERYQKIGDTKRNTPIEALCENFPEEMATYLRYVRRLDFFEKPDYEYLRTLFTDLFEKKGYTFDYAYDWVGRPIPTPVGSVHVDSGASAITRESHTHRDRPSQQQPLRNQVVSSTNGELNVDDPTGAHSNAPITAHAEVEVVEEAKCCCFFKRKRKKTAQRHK
Chain of UniProt O00444 (whole entry, looked up): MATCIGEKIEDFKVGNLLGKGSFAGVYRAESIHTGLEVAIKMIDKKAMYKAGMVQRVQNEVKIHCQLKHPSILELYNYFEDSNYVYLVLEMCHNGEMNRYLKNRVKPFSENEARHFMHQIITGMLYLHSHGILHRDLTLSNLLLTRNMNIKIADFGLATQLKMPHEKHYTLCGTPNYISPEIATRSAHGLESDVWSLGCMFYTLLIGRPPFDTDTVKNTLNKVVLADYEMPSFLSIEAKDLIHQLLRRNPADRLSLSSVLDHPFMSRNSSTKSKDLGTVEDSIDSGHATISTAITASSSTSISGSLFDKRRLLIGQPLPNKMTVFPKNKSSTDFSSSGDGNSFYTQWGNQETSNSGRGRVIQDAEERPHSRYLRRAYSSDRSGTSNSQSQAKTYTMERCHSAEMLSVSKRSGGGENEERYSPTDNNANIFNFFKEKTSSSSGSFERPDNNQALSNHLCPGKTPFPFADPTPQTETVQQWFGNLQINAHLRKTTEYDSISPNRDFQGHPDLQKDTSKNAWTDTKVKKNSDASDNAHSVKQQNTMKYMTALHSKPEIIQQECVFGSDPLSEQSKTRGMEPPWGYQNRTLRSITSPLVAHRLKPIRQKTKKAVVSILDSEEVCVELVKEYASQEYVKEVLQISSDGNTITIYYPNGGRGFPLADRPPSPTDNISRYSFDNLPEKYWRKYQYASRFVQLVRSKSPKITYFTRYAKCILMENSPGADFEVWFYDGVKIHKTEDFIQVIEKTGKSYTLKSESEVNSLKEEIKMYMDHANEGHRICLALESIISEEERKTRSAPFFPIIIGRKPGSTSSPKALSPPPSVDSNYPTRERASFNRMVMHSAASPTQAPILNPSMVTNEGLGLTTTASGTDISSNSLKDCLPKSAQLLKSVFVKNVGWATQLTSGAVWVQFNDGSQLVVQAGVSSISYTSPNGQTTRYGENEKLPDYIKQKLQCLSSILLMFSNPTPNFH
Chain of UniProt P49840 (whole entry, looked up): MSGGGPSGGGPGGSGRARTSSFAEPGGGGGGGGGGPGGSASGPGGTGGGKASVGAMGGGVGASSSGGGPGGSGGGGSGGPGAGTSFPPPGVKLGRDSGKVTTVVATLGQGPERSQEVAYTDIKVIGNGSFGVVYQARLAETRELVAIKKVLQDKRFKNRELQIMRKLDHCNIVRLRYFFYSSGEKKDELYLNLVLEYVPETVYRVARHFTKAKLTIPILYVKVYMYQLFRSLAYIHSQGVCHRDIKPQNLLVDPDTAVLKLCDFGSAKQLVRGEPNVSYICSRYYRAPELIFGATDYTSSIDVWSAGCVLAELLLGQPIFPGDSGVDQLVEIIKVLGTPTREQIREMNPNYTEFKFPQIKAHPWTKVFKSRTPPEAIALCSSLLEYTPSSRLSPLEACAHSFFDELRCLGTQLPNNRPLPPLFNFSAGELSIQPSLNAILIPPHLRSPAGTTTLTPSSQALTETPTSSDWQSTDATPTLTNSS
Chain of UniProt P49146 (whole entry, looked up): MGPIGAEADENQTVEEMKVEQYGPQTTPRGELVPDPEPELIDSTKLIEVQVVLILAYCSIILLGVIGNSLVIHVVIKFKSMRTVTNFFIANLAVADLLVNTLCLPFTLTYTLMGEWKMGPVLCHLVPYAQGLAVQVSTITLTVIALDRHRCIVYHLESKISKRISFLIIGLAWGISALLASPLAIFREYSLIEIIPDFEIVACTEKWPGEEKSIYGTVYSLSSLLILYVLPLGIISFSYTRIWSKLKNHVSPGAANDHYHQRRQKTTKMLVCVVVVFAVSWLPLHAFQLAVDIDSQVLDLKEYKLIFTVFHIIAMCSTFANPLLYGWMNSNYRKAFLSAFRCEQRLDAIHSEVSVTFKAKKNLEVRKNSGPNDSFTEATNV
Chain of UniProt P08173 (whole entry, looked up): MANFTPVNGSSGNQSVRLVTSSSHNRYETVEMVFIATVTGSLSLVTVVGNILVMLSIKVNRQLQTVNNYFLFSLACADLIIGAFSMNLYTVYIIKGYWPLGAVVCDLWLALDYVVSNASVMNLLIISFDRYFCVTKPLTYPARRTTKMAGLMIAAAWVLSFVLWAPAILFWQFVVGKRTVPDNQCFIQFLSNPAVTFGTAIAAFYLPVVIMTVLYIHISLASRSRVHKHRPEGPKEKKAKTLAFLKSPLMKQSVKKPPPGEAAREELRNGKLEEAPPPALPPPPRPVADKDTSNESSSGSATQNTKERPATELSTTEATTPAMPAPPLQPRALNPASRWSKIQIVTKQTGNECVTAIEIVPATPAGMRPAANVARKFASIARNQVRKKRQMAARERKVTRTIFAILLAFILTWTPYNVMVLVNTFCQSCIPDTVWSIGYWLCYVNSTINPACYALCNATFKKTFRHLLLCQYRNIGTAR
Chain of UniProt Q12866 (whole entry, looked up): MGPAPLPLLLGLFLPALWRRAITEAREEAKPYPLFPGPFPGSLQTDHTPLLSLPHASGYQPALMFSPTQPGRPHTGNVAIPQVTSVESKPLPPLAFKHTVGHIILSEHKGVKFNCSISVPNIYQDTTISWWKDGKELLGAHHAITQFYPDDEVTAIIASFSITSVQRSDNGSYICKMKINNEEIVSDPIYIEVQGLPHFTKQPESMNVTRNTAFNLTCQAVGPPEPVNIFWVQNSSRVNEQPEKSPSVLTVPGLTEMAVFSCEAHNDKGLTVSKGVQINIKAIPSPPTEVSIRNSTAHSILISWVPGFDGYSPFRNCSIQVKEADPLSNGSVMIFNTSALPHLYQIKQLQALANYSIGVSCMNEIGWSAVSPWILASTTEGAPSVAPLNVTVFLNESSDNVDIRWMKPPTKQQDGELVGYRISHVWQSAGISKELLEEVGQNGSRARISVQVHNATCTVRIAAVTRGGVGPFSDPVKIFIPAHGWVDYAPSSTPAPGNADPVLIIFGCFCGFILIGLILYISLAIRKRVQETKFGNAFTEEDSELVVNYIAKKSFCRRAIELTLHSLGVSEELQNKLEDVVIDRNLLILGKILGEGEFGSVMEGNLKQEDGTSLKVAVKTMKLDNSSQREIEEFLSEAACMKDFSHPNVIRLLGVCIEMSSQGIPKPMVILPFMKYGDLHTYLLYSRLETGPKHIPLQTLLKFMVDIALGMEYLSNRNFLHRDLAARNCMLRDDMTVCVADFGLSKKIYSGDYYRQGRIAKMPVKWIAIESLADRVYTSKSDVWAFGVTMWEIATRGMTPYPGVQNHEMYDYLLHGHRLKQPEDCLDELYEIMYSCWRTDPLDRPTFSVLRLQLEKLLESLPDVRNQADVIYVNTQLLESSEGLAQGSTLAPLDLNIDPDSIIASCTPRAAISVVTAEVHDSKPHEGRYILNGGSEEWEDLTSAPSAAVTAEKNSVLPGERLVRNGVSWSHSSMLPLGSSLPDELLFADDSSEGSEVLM

SMILES | tested on | test | system | conditions | scale | endpoint | result
CC(C)[C@H]1NC(=O)C[C@H]2/C=C/CCSSC[C@@H](NC1=O)C(=O)N[C@H](Cc1cccc3ccccc13)C(=O)NCC(=O)O2 | GSK3A (Homo sapiens, UniProt P49840) | enzyme activity, inhibitor |  | 10 µM |  | inhibition | 1.1%
O=C(N1CCCCC1)n1ccnn1 | sn-1-specific diacylglycerol lipase ABHD11 (Mus musculus, UniProt Q8K4F5) | serine hydrolase activity, inhibitor, competitive gel-based ABPP | mouse T-cell proteome | 1 µM, 30 min, 37 °C |  | inhibition | 50 to 95%
CN[C@@H]1[C@H](O)[C@H](NC)[C@H]2O[C@]3(O)[C@H](O[C@@H]2[C@H]1O)O[C@H](C)C[C@H]3NC(=O)Cc1cc(Cl)ccn1 | NPY2R (Homo sapiens, UniProt P49146) | ligand displacement, radioligand |  | 10 µM |  | inhibition | -1%
CN[C@H](CC(C)C)C(=O)N[C@H]1C(=O)N[C@@H](CC(N)=O)C(=O)N[C@H]2C(=O)N[C@H]3C(=O)N[C@H](C(=O)N[C@H](C(=O)NCC(N)=O)c4cc(O)cc(O)c4-c4cc3ccc4O)[C@H](O)c3ccc(c(Cl)c3)Oc3cc2cc(c3O[C@@H]2O[C@H](CO)[C@@H](O)[C@H](O)[C@H]2O[C@H]2C[C@](C)(NCc3ccc(OCc4cn(CC(=O)N[C@H](C(=O)N[C@@H](CCN)C(=O)N[C@H]5CCNC(=O)[C@H]([C@@H](C)O)NC(=O)[C@H](CCN)NC(=O)[C@H](CCN)NC(=O)[C@H](CC(C)C)NC(=O)[C@@H](CC(C)C)NC(=O)[C@H](CCN)NC5=O)[C@@H](C)O)nn4)c(OC)c3)[C@H](O)[C@H](C)O2)Oc2ccc(cc2Cl)[C@H]1O | ciPTEC overexpressing OAT-1 |  |  | 24 h, 37 °C, serum-free medium |  | TC50 | 180 µM
CCOC(=O)[C@](CC)(CCCSCCOCCOCCNC(=O)c1ccc(-c2c3ccc(=N)c(S(=O)(=O)O)c-3oc3c(S(=O)(=O)O)c(N)ccc23)c(C(=O)O)c1)NC(=O)c1ccc(C2CC2)c(Cc2ccc(F)cc2)n1 | ACE (Homo sapiens, UniProt P12821) | enzyme activity, inhibitor |  | 10 µM |  | inhibition | -22%
O=C1NC2(CC2)COc2ncc(F)cc2[C@H]2COCCN2c2ccn3ncc1c3n2 |  |  | Sprague-Dawley rat, female, uterus | oral, 10 mg/kg/day, 4 weeks dosing, end of recovery |  | organ-to-body weight ratio | 0.159 ± 0.023%
CC(C)(C)C(=O)OCOP(=O)(OCOC(=O)C(C)(C)C)C1CCCN(O)C1=O (stereo not drawn) | PC-3 |  |  |  |  | CC50 | > 100 µM
C=CC(=O)Nc1cc(-c2nn(C3CCC(N4CCN(C(C)=O)CC4)CC3)c3ncnc(N)c23)ccc1Oc1ccccc1 (stereo not drawn) | ERN1 (Homo sapiens, UniProt O75460) | inhibitor, KiNativ profiling | biochemical | 2 µM |  | inhibition | -14.6%
CN[C@@H]1[C@H](O)[C@H](NC)[C@H]2O[C@]3(O)[C@H](O[C@@H]2[C@H]1O)O[C@H](C)C[C@H]3NC(=O)Cc1ccc(Cl)cn1 | Grin1 (Rattus norvegicus, UniProt P35439) |  |  | 10 µM |  | inhibition | 6%
O=C1NC(=O)c2c1c1cc(F)c[n+]3c1c1c2c2cc(O)ccc2[n]1[Ru-4]312([N]=C=S)[S+]3CC[S+]1CC[S+]2CC3 (stereo not drawn) | CHEK2 (Homo sapiens, UniProt O96017, I157T) | enzyme activity |  | 100 nM, human enzyme, added: 10 µM ATP | reference: untreated | remaining activity | 37%
O=C(CN1CN(c2ccccc2)C2(CCN(C(=O)c3cnc4[nH]ncc4c3)CC2)C1=O)NCC(F)(F)F | STK24 (Homo sapiens, UniProt Q9Y6E0) | inhibitor |  | concentration not given |  | inhibition | < 50%
CN(/N=C/c1ccccc1C(=O)O)c1nc(-c2ccccc2Cl)cs1 | MERTK (Homo sapiens, UniProt Q12866) | enzyme activity, inhibitor |  | 1 µM |  | inhibition | -15.9%
Cc1ccc2c(C(C[N+](=O)[O-])c3cccs3)c(-c3ccccc3)[nH]c2c1 (stereo not drawn) | CNR1 (Homo sapiens, UniProt P21554, S199A) | G protein activation, agonist, BRET |  |  |  | EC50 | 1.16 µM
Cn1c(=O)[nH]c2nncnc2c1=O | USP5 (Homo sapiens, UniProt P45974) | enzyme activity, inhibitor |  | 17 µM |  | inhibition | 96%
C1COCCN1 | BCHE | enzyme activity, inhibitor, Ellman |  | 20 µM |  | inhibition | 39.2%
Nc1ccc(/C=C/C(=O)N2CCc3c(oc4c(-c5ccc(F)cc5)cc(-c5ccc(C(=O)N6CCC(F)(F)CC6)cn5)cc34)C2)cn1 | PLK4 (Homo sapiens, UniProt O00444) | binding, competition with immobilised ligand |  | 1 µM |  | remaining binding | 88%
N[C@H](C(=O)N1CCCC1)C1CCN(c2nccc3c(-c4ncc(Cl)cc4Cl)cccc23)CC1 | CHEK2 (Homo sapiens, UniProt O96017) | kinase activity, inhibitor |  | 10 µM, added: ATP 1 mM |  | inhibition | -0.8%

SMILES | tested on | test | system | conditions | scale | endpoint | result
C[C@H](NCc1ccc(-c2ccc(C(F)(F)F)cc2)cc1)C(N)=O | ADRA2B (Homo sapiens, UniProt P18089) | radioligand binding, SafetyScreen panel |  | 1 µM, species human, added: 2.50 nM [3H]Rauwolscine |  | inhibition | -3%
CSCC[C@@H]1NC(=O)[C@H](Cc2ccccc2)NC(=O)[C@H]([C@@H](C)O)NC(=O)[C@@H]2CSSC[C@@H]3NC(=O)[C@H]([C@@H](C)O)NC(=O)[C@H](CC(N)=O)NC(=O)[C@H](CSSC[C@@H](C(=O)N[C@@H](CC(=O)O)C(=O)N[C@@H](CCC(N)=O)C(=O)O)NC(=O)[C@H](CC(C)C)NC1=O)NC(=O)[C@H](CCCCN)NC(=O)[C@H](CC(=O)O)NC(=O)[C@H](CCCCN)NC(=O)[C@H](Cc1ccccc1)NC(=O)[C@H]([C@@H](C)O)NC(=O)[C@H]([C@@H](C)O)NC(=O)CNC(=O)[C@@H]1CCCN1C(=O)[C@H](CCC(=O)O)NC(=O)[C@@H](NC(=O)[C@@H](NC(=O)[C@@H](NC(=O)[C@H](CCC(=O)O)NC(=O)[C@H](CO)NC(=O)CN)C(C)C)[C@@H](C)O)CSSC[C@H](NC(=O)[C@H](CCCNC(=N)N)NC3=O)C(=O)NCC(=O)N[C@@H](CO)C(=O)N[C@@H](CC(=O)O)C(=O)NCC(=O)N[C@@H](CCCCN)C(=O)N[C@@H](CO)C(=O)N[C@@H](C)C(=O)N[C@@H](Cc1ccc(O)cc1)C(=O)N2 | Chymotrypsin-C (Homo sapiens, UniProt Q99895) | substrate, LC-MS |  | 15 µM, pH 8.0, 25 °C, added: Chymotrypsin-C 150 nM |  | cleaved form | 3%
CSCC[C@@H]1NC(=O)[C@@H]2CCCN2C(=O)[C@H](C(C)C)NC(=O)[C@@H](NC(=S)Nc2ccc(CC3CN(CC(=O)O)CCN(CC(=O)O)CCN3CC(=O)O)cc2)CSSC[C@@H](C(=O)O)NC(=O)[C@H](C)NC(=O)[C@H](CCCNC(=N)N)NC(=O)[C@H](Cc2ccc(O)cc2)NC(=O)[C@H]([C@@H](C)O)NC1=O (stereo partly drawn) [gallium-68 labelled] |  | PET | mouse B16-F10 tumour | intravenous, 1 h |  | tumour to liver ratio | 1.18 ± 0.23
CC(=O)NC[C@@H]1[C@@H](O)C[C@H]2[C@H](O)C[C@@H](CO)N12 | Spodoptera litura β-N-acetylglucosaminidase |  | crude enzyme | 3.42 µM, run 1, added: p-nitrophenyl GlcNAc |  | inhibition | 86.8%
Cc1ccc2c(n1)c(-c1cccc(S(C)(=O)=O)c1)c(C)n2C/C(F)=C/CN | PDE3 (human) |  |  | 10 µM |  | inhibition | -7%
CCC1CC(c2ccc(C(=O)O)cc2C)=NN1c1ccc(C#N)c(Cl)c1 (stereo not drawn) | DNMT1 (Homo sapiens, UniProt P26358) | enzyme activity, inhibitor |  | 10 µM |  | inhibition | 17%
CS(C)(=O)=Nc1ccc(-c2ccc(-c3nc4cc(O[C@@H]5CO[C@H]6[C@@H]5OC[C@H]6O)[nH]c4cc3F)cc2)cc1 | sigma receptor human non-selective | binding |  | 10 µM |  | inhibition | 25%
CN(C)[C@H]1C[C@@]23CC[C@@]4(O2)C(=CC[C@]2(C)[C@@H](c5ccc6ccncc6c5)CC[C@H]24)C=C3[C@@H](O)[C@@H]1O | CDK5 (Homo sapiens, UniProt Q00535) | ATP probe labelling, inhibitor, KiNativ profiling |  | 1 µM |  | inhibition | 6.7%
NCC1CCN(Cc2ccccc2)CC1 | BCHE | enzyme activity, inhibitor, Ellman |  | 20 µM |  | inhibition | 40.8%
COc1ccccc1-c1n[nH]c2nc(NC3CCN(C(=O)Cc4ccc(F)cc4F)CC3)ncc12 |  | bead binding, competition bead pull-down, item: LINJ.25.2090 | Leishmania donovani axenic amastigote extract | 10 µM | reference: vehicle | relative abundance | 1.46
CN1CCNCC1 | BCHE | enzyme activity, inhibitor, Ellman |  | 20 µM |  | inhibition | 45.7%
O=C(O)c1ccccc1/C=N/Nc1nc(-c2ccccc2Cl)cs1 | CSNK1G1 (Homo sapiens, UniProt Q9HCP0) | enzyme activity, inhibitor |  | 1 µM |  | inhibition | 3.37% and 10.3%
Cc1cc(O)cc(C)c1C[C@H](N)C(=O)N[C@H](CCCNC(=N)N)C(=O)N[C@@H](Cc1ccccc1)C(=O)N(C)CC(=O)N(C)Cc1cc(C(F)(F)F)cc(C(F)(F)F)c1 | OPRD1 (Homo sapiens, UniProt P41143, Y308A) |  |  |  |  | Ki | 0.00707 ± 0.00057 µM
CC(=O)N[C@@H](CC(C)C)C(=O)N[C@H](C(=O)N[C@@H](Cc1ccccc1)C(=O)N[C@]1(C)CCCCCC/C=C/CCC[C@@](C)(C(=O)N[C@@H](C)C(=O)N[C@@H](C)C(=O)N[C@@H](C)C(=O)N[C@@H](C)C(=O)N[C@@H](C)C(=O)N[C@H](C)C(N)=O)NC(=O)[C@H](CC(C)C)NC(=O)[C@H](CCCCNC(=O)CCNC(=O)C[C@@H]2N=C(c3ccc(Cl)cc3)c3c(sc(C)c3C)-n3c(C)nnc32)NC(=O)[C@H](C)NC(=O)[C@H](Cc2c[nH]c3ccccc23)NC(=O)[C@H](Cc2ccc(O)cc2)NC(=O)[C@H](C)NC1=O)[C@@H](C)O |  |  | C57BL/6J mice, male, plasma | intravenous, 10 mg/kg, 5% DMSO, PEG400, Tween-80, methylcellulose |  | AUC(0-t) | 61.7 µM·h
NCc1ccncc1 | BCHE | enzyme activity, inhibitor, Ellman |  | 20 µM |  | inhibition | 39.1%
COc1ccc(F)cc1S(=O)(=O)Nc1cnc2c(c1)C(=O)NCCO2 | CHRM4 (Homo sapiens, UniProt P08173) | ligand displacement, radioligand |  | 10 µM |  | inhibition | 3%

Excerpt of the above:
SMILES | tested on | test | system | conditions | scale | endpoint | result
N[C@H](C(=O)N1CCCC1)C1CCN(c2nccc3c(-c4ncc(Cl)cc4Cl)cccc23)CC1 | CHEK2 (Homo sapiens, UniProt O96017) | kinase activity, inhibitor |  | 10 µM, added: ATP 1 mM |  | inhibition | -0.8%
C[C@H](NCc1ccc(-c2ccc(C(F)(F)F)cc2)cc1)C(N)=O | ADRA2B (Homo sapiens, UniProt P18089) | radioligand binding, SafetyScreen panel |  | 1 µM, species human, added: 2.50 nM [3H]Rauwolscine |  | inhibition | -3%
